Assay results collected from several papers.

SMILES = Cc1c(Cl)c(C)[n+]([O-])c(Cl)c1-c1noc(-c2cc(O)c(O)c([N+](=O)[O-])c2)n1; test = refers to: Presyncope; system = healthy Caucasian subjects; conditions = oral, 25 mg, 4 days; endpoint = adverse drug reaction incidence; value = 0%
SMILES = FC(F)(F)c1ccc(CNc2ccc(Cc3c[nH]c4ncc(Cl)cc34)cn2)cn1; test = refers to: Hypertension; system = patients with advanced solid tumours; conditions = oral, dose not given, all grades, possibly related to drug; endpoint = adverse event incidence; value = 24%
SMILES = CNC(=O)c1ccc(-c2cnc3ncc(Cc4ccc5ncccc5c4)n3n2)cc1F; test = phase 1 clinical trial, refers to: blood alkaline phosphatase increased; system = HCC expansion cohort; conditions = oral, 600 mg twice daily, grade 3 or 4; endpoint = adverse event incidence; value = 0%
SMILES = O=C1CCc2ccc(OCCCCN3CCN(c4cccc(Cl)c4Cl)CC3)cc2N1; test = refers to: Hypotension; system = genotyped patients, CYP2D6 ultrarapid metabolizers; conditions = dose not given, long-acting oral or depot; endpoint = adverse event incidence; value = 11%
SMILES = CC[C@H](C)CCCCC(=O)N[C@@H](CCN)C(=O)N[C@H](C(=O)N[C@@H](CCN)C(=O)N[C@H]1CCNC(=O)[C@H]([C@@H](C)O)NC(=O)[C@H](CCN)NC(=O)[C@H](CCN)NC(=O)[C@H](CC(C)C)NC(=O)[C@@H](Cc2ccccc2)NC(=O)[C@H](CCN)NC1=O)[C@@H](C)O; test = refers to: dry mouth; system = all subjects; conditions = intravenous, 0.75 mg/kg; endpoint = adverse event incidence; value = 18.2%
SMILES = Cc1c(C(=O)O)ccc2c3n(nc12)[C@@H]1[C@H](C3)N(CC2CC2)[C@@]2(C(=O)Nc3cc(Cl)ccc32)[C@H]1c1cccc(Cl)c1F; test = phase Ia trial, refers to: Dysgeusia; system = cancer patients; conditions = oral, dose not given; endpoint = adverse event incidence; value = 20%
SMILES = NCCONC(=O)[C@@H]1CC[C@@H]2CN1C(=O)N2OS(=O)(=O)O; system = healthy Chinese men; conditions = intravenous, 2 g, treatment-related; endpoint = adverse event incidence; value = 12.5%
SMILES = Cc1cc(Nc2ccc(S(F)(F)(F)(F)F)cc2)n2nc(C(C)(F)F)nc2n1; system = Plasmodium falciparum malaria patients; conditions = oral, 400 mg; endpoint = adverse event Chills; value = 7.7%
SMILES = CC(=O)O[C@H]1C(=O)[C@@]2(C)[C@H]([C@H](OC(=O)c3ccccc3)[C@]3(O)C[C@H](OC(=O)[C@H](O)[C@@H](NC(=O)c4ccccc4)c4ccccc4)C(C)=C1C3(C)C)[C@]1(OC(C)=O)CO[C@@H]1C[C@@H]2O; test = refers to: Fatigue; system = patients with advanced solid tumours; conditions = intravenous, dose not given, all grades, possibly related to drug; endpoint = adverse event incidence; value = 59%
SMILES = Cc1ccc(Sc2ccccc2N2CCNCC2)c(C)c1; test = TEAE Acne; system = elderly women; conditions = oral, 10 mg single dose; endpoint = adverse event incidence; value = 0%

A few entries again:
SMILES = FC(F)(F)c1ccc(CNc2ccc(Cc3c[nH]c4ncc(Cl)cc34)cn2)cn1; test = refers to: Hypertension; system = patients with advanced solid tumours; conditions = oral, dose not given, all grades, possibly related to drug; endpoint = adverse event incidence; value = 24%
